Published values collected from several papers.
Every numbered part comes from another study and shows a few of its results, in no order.

Sample 1
Target: Ras GTPase-activating protein-binding protein 1, full length (G3BP1, Homo sapiens, UniProt Q13283)
Sequence of UniProt Q13283 (whole entry, looked up): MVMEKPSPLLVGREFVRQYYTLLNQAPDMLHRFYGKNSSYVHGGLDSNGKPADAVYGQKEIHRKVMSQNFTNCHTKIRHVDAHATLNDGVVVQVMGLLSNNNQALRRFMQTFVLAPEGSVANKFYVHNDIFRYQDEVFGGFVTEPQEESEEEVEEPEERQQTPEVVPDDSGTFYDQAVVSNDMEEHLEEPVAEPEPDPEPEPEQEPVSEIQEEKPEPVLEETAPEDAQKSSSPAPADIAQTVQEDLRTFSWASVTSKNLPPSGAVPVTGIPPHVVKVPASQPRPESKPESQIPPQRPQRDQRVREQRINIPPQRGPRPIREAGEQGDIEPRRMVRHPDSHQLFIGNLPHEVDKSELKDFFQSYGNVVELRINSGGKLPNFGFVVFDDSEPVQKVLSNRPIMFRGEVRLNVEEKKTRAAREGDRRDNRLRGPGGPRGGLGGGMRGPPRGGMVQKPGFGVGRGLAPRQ
Method: RNA Bind-n-Seq
Form: RNA
Matrix: in vitro
Tested at: 200 nM
Notes: whole 134-nt RNA, ends assumed
Added: 150 mM KCl
Relative to: input library
Reading: higher = stronger binding
Constant ends, left off below: GGGAGUUCUACAGUCCGACGAUC … UGGAAUUCUCGGGUGUCAAGG
With `UAACUUUAGAGGAGGAUCUGAUGGAUAUGGCAGUGGACGUGGAUUUGGGGAUGGCUAUAAUGGGUAUGGAGGAGGGCCUGGAGGUGGCAA` the log2 enrichment was 0.739.
With `AUGUUCUUGAAUACUUAGCAAACAUACCAGCAUCCCAAAGUCACCAAGAUAAACCCUCCUACUCCAACAUCACAUGAUCUUCUAAUUCUA` the log2 enrichment was -0.0074.
`GCAGGAAGUAAAAAUAAAUGGAAAUGCUUCGGAUAGUGGCAGGGGUGGGGGUUGCUAAGGAAAGGGUGGGAUGGGAGUGGGUAAAGAGUU` gave a log2 enrichment of 0.638.
`CCUGUGCUACACAUCGUAUGUACCGAAUCGGGGAAAAAGGGGAAAAAGGGGUUUUUGGGGAAAGUAUUAUGUUACGCCGUUCGGAUCUGC` gave a log2 enrichment of 0.267.
With `AAGUCCUGUGCUACACAUCGUAUGUACCGAAUCGGGGUUUUUGGGGAGGGGAGGGGAAAGUAUUAUGUUACGCCGUUCGGAUCUGCACUU` the log2 enrichment was 0.814.
`AGUCCUGUGCUACACAUCGUAUGUACCGAAUCGGGAAAAAGGGUUUUUUUGGGAGGGAAAGUAUUAUGUUACGCCGUUCGGAUCUGCACU` gave a log2 enrichment of 0.0271.

Sample 2
Cell line: HEK-293T
Observed: pseudovirus infection
Method: FDA-approved drug library screen
Organism: VSV pseudotyped with SARS-CoV-2 spike
Tested at: 10 µM
Time: 16 h
Relative to: vehicle-treated
`CC(C)C(=O)Nc1ccc([N+](=O)[O-])c(C(F)(F)F)c1` has a GFP-positive cells of 150%.
`CC(C)[C@H](N)C(=O)OCC(CO)OCn1cnc2c(=O)nc(N)[nH]c21` (some centres unmarked) has a GFP-positive cells of 61%.
`C[N+](C)(C)CCOC(N)=O` gave a GFP-positive cells of 98.1%.

Sample 3
Target: RNA binding protein fox-1 homolog 2, RRM domain, GST-SBP tag (RBFOX2, Homo sapiens, UniProt O43251-10, residues 100-194)
Method: RNA Bind-n-Seq
Form: RNA
Matrix: in vitro
Tested at: 365 nM
Notes: natural RNA segment, single round, ends assumed
Relative to: no-protein control
Reading: higher = stronger binding
Constant ends, left off below: GGGAGUUCUACAGUCCGACGAUC … UGGAAUUCUCGGGUGCCAA
`AGUAUUAAAAAUUGGGUCUAUGACAUAUUGUCCAAAAGGAAUGCUGUUCUUAAAGCAUUAUUUACAGUAGGAACUGGGGAGUAAAUCUGUUCCCUACAGUUUGCUGCUGA` — result for “RBNS enrichment (R)”: 0.389.
`GAAGCUUUGGCAGCCUUCUGGAACGUCCCUCAUCCCCAGAAUCUCCCUUCUUACCCGAGUGCCUCCUGCUUCCUCCGAGGCCCAGGGGGACUCAUAUCCAAUGGCUCCUA` — result for “RBNS enrichment (R)”: 0.692.
`UCAGUAUAUUAAAUCUGUUUAUUAUGUACACUGUAUGUUUACUCUCAAUAGUACAUGAGAACGUAUUGGCUUACCUUAUACAAUAAAUUAGUCCUUUUGUUUACUCAGUU`: “RBNS enrichment (R)” 0.428.
For `AAGCAUUUGAUAGAAAUCUGUCUUGCAGCACUGUCUUCACAUUUAAUGUUGCUUUCUCUUCUAGUCUCGGGUAUGUUUAAAUGAUUCCCUUUUCUCACUCUAGCGCCAAU`, “RBNS enrichment (R)” read 0.434.
For `AAUGCCUACAGCUGUCUUCACAUGUAUGGACGUGUGUGAAUGGUUGUACGUUUUGCACAUUUUGUGGCUGUUGAGAUGUGCUUUGCUGCACAAACAUGAAAAUUUUUGAG`, “RBNS enrichment (R)” read 0.611.
`CCUUUUCCACUUGACAUGCUAGAAUUUUGGUGUGUGUGUGUGUGUGUGUGUAUUUGUUCACGAGCACAAUAGCUCCCAUGGGGGUCUGCACAUGCAGGUGUCCACCAGCA` — result for “RBNS enrichment (R)”: 5.22.
Under “RBNS enrichment (R)”, `UUAUAUACUAUGAGAUAGUGAGGGAGUAUAGAAGUGAAAACCAGGUGUCUGUUCUUGCCCUUAAUAUUAUAAGUGGCAUAAAUGUCACACCAUUGCAAAGAACGGGAGAA` is recorded as 0.374.
For `GCUAUGAAGAAAGAUGUGCAGAGACUGGGGUGGAGACUAAGCCAAAGAGGAGCUGCCUAGCCUGGCAGCAUUGCCCCGAGCUGAGCCCCCUUGGCCAGGACUUCACAAGG`, “RBNS enrichment (R)” read 0.455.

Sample 4
Target: Replicase polyprotein 1ab, 3C-like proteinase (rep, Middle East respiratory syndrome-related coronavirus, UniProt K9N7C7)
Observed: enzyme activity
Tested at: 10 µM
`CCOC(=O)Cc1ccc(-c2ccccc2)cc1` gave an inhibition of 18%.
For `O=[N+]([O-])c1ccc(O)c2ncccc12`, the inhibition was 7%.
For `Oc1cc2c(cc1O)[C@H]1c3ccccc3CN[C@@H]1CC2` (racemic), the inhibition was 19%.

Sample 5
Target: Sal-like protein 4, full length isoform B (SALL4, Homo sapiens, UniProt Q9UJQ4-2, residues 1-616)
Method: universal PBM
Form: double-stranded DNA, one strand shown
Matrix: in vitro
Tested at: not given
Notes: 8-mer, flanks averaged, mean of replicates
Reading: higher = stronger binding
The E-score of `CGGTTCTA` is reported as -0.0918.
`CAGCTCAC` has an E-score of -0.112.
`AGCACCGG` has an E-score of -0.283.
For `TCGTGAAA`, the E-score was -0.0318.
With `AATGCTGT` the E-score was 0.118.
The E-score of `GTCTTTAA` is reported as 0.212.
The E-score of `ACCGGGAT` is reported as -0.269.
With `CTTCCCCC` the E-score was -0.00859.

Sample 6
Target: Replicase polyprotein 1ab, nsp13 helicase (rep, Severe acute respiratory syndrome coronavirus 2, UniProt P0DTD1)
Mode: inhibitor
Tested at: 20 µM
With `CCc1nc(N)nc(N)c1-c1ccc(Cl)cc1` the inhibition was 0.13%.
`O=C(O)CNC(=O)c1ccccc1I` gave an inhibition of 1.32%.
`O=C(NC(=O)c1c(F)cccc1Cl)NC1c2ccccc2-c2ccccc21` has an inhibition of 2.01%.
The inhibition of `c1ccc(-c2cnn3cc(-c4ccc(OCCN5CCOCC5)cc4)cnc23)cc1` is reported as -1.25%.
`Cn1cc(/C=C/C(=O)c2cccc(F)c2)cc1/C=C/C(=O)NO` has an inhibition of 0.68%.
The inhibition of `OC[C@H]1O[C@@H](OCCc2ccc(O)cc2)[C@H](O)[C@@H](O)[C@@H]1O` is reported as 3.65%.
For `CCC(=C(CC)c1ccc(OP(=O)(O)O)cc1)c1ccc(OP(=O)(O)O)cc1`, the inhibition was 2.12%.
`CCC(C)C(CC)C(N)=O` (centres unmarked) gave an inhibition of -1.22%.
With `Cc1sc(C)c2c1CCC=C2c1cnc[nH]1` the inhibition was 2.14%.
For `O=[N+]([O-])c1cn2c(n1)OC[C@@H](OCc1ccc(OC(F)(F)F)cc1)C2`, the inhibition was 6.9%.
`O=S(=O)(N=Cc1c(O)ccc2ccccc12)c1cccs1` gave an inhibition of 2.72%.
The inhibition of `CN(C)CCOC1=Cc2ccccc2Sc2ccc(Cl)cc21` is reported as 1.41%.
With `C[C@]12CC[C@H](O)C[C@@H]1CC[C@@H]1[C@@H]2CC[C@]2(C)C(=O)CC[C@@H]12` the inhibition was 1.52%.
With `C[C@@H](c1nc(-c2ccc(C#N)cc2)cs1)[C@](O)(Cn1cncn1)c1ccc(F)cc1F` the inhibition was 3.63%.
For `NC(=O)NC1NC(=O)NC1=O` (centres unmarked), the inhibition was -1.62%.
The inhibition of `C/C=C/C=C/C(=O)O` is reported as 4.69%.
With `CC(C)(C)NCC(O)COc1cccc2c1CCC(=O)N2` (centres unmarked) the inhibition was 3.04%.
For `O=C(Cc1cccc(OC(F)(F)F)c1)Nc1ccc(CCCCc2nnc(NC(=O)Cc3ccccn3)s2)nn1`, the inhibition was 4%.
`C(#Cc1nc2ncccc2nc1OCCN1CCCC1)c1ccccc1` has an inhibition of 14.9%.
`CC(C)C[C@H](NC(=O)[C@@H](COC(C)(C)C)NC(=O)[C@H](Cc1ccc(O)cc1)NC(=O)[C@H](CO)NC(=O)[C@H](Cc1c[nH]c2ccccc12)NC(=O)[C@H](Cc1cnc[nH]1)NC(=O)[C@@H]1CCC(=O)N1)C(=O)N[C@@H](CCCNC(=N)N)C(=O)N1CCC[C@H]1C(=O)NNC(N)=O` has an inhibition of -0.92%.
The inhibition of `CC(C)(F)C[C@H](N[C@@H](c1ccc(-c2ccc(S(C)(=O)=O)cc2)cc1)C(F)(F)F)C(=O)NC1(C#N)CC1` is reported as 3%.
For `CCN[C@H]1CN(CCCOC)S(=O)(=O)c2sc(S(N)(=O)=O)cc21`, the inhibition was 0.81%.
`C#Cc1c[nH]c(=O)[nH]c1=O` gave an inhibition of 2.23%.
`CO[C@H]1[C@H](O)[C@@H](O)[C@@H](O)[C@H](O)[C@@H]1O` has an inhibition of 5.49%.
With `CN1Cc2c(C(=O)OC(C)(C)C)ncn2-c2ccsc2C1=O` the inhibition was 7.22%.
